Published values of several laboratories.
Numbered parts are unrelated; each lists some results of a single study.

Sample 1
Target: Histone acetyltransferase KAT6A, winged helix 1, GST fusion (KAT6A, Homo sapiens, UniProt Q92794, residues 1-85)
Technique: protein binding microarray
Form: double-stranded DNA, one strand shown
Sample: in vitro
Tested at: not given
Notes: 8-mer, flanks averaged, mean of 2 arrays, mostly near background
Relative to: not given
Direction: higher = stronger binding
Target sequence (chain): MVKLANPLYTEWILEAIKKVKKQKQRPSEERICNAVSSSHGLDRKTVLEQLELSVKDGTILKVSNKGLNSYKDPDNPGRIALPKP
Oligonucleotide | E-score
CGTCCACA | -0.0563
AATTACAC | 0.0204
GGGCGATA | 0.129
CGCCAGAA | -0.119
AGCTCGCA | -0.183
AACACAGG | -0.241
ATCAATCA | -0.164
ACACAAGC | -0.19
CCGCTCGA | 0.298
AGATAAGC | -0.083
CTGGAGAC | -0.124
CTATCACA | -0.17
CACCGTCG | 0.384
CAGCGACC | 0.13
CAAGTATG | -0.114
CTACGTAG | 0.032
AATCTTCG | 0.019
TGACTACA | -0.147
CTTTACCC | 0.0429

Sample 2
Target: Sal-like protein 4, full length isoform B (SALL4, Homo sapiens, UniProt Q9UJQ4-2, residues 1-616)
Technique: universal PBM
Form: double-stranded DNA, one strand shown
Sample: in vitro
Tested at: not given
Notes: 8-mer, flanks averaged, mean of replicates
Direction: higher = stronger binding
Oligonucleotide | E-score
ATTTCCTA | 0.25
ACCAGTAT | -0.112
GGTCGAGA | -0.222
AACGGGGA | -0.123
AGCTTTGA | 0.0905
GAGATAAA | 0.157
ACTCAGCG | -0.113
ATGAAGTG | 0.19
CGCTCGAA | -0.1
GTCTATGA | 0.105
CTGTACGC | -0.117
ACCGATTC | -0.184
AGGCCTCC | -0.204
ACGCGAGC | -0.234
AAATTAAA | 0.345
ATGGACCA | 0.0459
ACGCACGC | -0.141
TCTCTCAA | 0.102

Sample 3
Target: Phosphate system positive regulatory protein PHO4, full length, GST-tagged (PHO4, Saccharomyces cerevisiae, UniProt P07270, residues 1-312)
Technique: competition protein-binding microarray
Form: double-stranded DNA, one strand shown
Sample: in vitro
Tested at: 2 µM
Notes: whole 60-bp probe, lowest competitor level
Together with: Cbf1 competitor, 0.05 µM
Direction: higher = stronger binding
Shared flanks, not repeated: … GTCTTGATTCGCTTGACGCTGCTG
Construct (chain): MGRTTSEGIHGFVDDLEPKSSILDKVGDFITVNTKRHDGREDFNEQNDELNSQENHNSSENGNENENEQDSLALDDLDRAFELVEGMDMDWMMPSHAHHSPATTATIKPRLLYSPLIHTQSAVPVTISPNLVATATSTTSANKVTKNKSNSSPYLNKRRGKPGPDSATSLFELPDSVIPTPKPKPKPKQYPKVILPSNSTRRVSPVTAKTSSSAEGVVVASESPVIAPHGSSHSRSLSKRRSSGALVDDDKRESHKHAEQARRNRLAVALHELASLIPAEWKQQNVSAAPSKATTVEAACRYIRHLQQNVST
Oligonucleotide | fluorescence intensity [a.u.]
CTTTCCCGATCTTGCATCGTGGGTGTAGCACATTTG | 11100
CTAACGAAGGTTTTTCACGTGATGTACAAGCCAAGT | 12700
GGGCTGGATAGCCATCAGGTGCTGCACAGATTACTA | 4870
AAAGCGGTAATTTGTCACGCGACTTCACATATCTAT | 7530
AATGATATCACCAGTACCGTGACGGACATCAAACTC | 4090
GTTACAGATCTCCTACACGTTACATGTTCCAAAGTA | 8180
TTGACAATGTCGAGTCACGTGCAAAACAATTCAAGT | 16700
CCGACCACTGGGATCCACATGTCCTTGTCTCTCAGG | 10100
CGCAGCGGCTGGCAGCATGTGCAGGATAATGATAAG | 11700
AATGTTTCTTCCCAACAAATGCAAGAAGTCAGAAAG | 2700
AAAGCGGTAATTTGTCTGGTGGGTGCAGATATCTAT | 4020
AAATTACTAAGTTGTGGTGTGGGTGACGCCGTATGA | 5180
CTAACGAAGGTTTGTCACAGGACTTACAAGCCAAGT | 4280
CCGAAAAGTGAAGATGATGTGATATTGGGCGAGAGC | 3000
TTGGTAGAGGCGGTTCCCGTGGTGATGCTCGCGGTG | 6620
CATGTTCATACCCTTCACGTTTGTGGAGCAAAGGTT | 10200
GACAGAAAAATTTGTCACGTGACGGGAAAAGTTACG | 14800
GTCTTGTCTCATTGTGATGTGGGTGTCCCCACTTCA | 5390
CTTTCCCGATCTTGTATGGTGGGTGTAGCACATTTG | 4790

Mixed results
Substance | target | assay | system | conditions | scale | endpoint | result
PhoQ, residues 284 288 289 292 302 303 NLALSC | PhoP, residues 12 14 15 18 19 NFCKL (Escherichia coli, UniProt P23836) | Sort-seq, refers to: YFP reporter | E. coli | PhoQ-PhoP variant library, together with: 10 µM Mg2+ | relative to: high Mg2+ state, higher = stronger signaling | fold induction | 2.56

A few entries again (sample 3):
Oligonucleotide | fluorescence intensity [a.u.]
CTTTCCCGATCTTGTATGGTGGGTGTAGCACATTTG | 4790
CCGAAAAGTGAAGATGATGTGATATTGGGCGAGAGC | 3000
AAATTACTAAGTTGTGGTGTGGGTGACGCCGTATGA | 5180
CGCAGCGGCTGGCAGCATGTGCAGGATAATGATAAG | 11700
TTGGTAGAGGCGGTTCCCGTGGTGATGCTCGCGGTG | 6620
AATGATATCACCAGTACCGTGACGGACATCAAACTC | 4090
AAAGCGGTAATTTGTCACGCGACTTCACATATCTAT | 7530
CTTTCCCGATCTTGCATCGTGGGTGTAGCACATTTG | 11100
